Measured values gathered from unrelated publications.
Protocols differ between the studies behind these lines.
gag-pol reverse transcriptase: Gag-Pol polyprotein, reverse transcriptase (gag-pol, Human immunodeficiency virus 1, UniProt P03366)
rep nsp14: Replicase polyprotein 1ab, nsp14 (rep, Severe acute respiratory syndrome coronavirus 2, UniProt P0DTD1)
SLC22A11: Solute carrier family 22 member 11 (SLC22A11, Homo sapiens, UniProt Q9NSA0)
Sequence of UniProt Q9NSA0 (whole entry, looked up): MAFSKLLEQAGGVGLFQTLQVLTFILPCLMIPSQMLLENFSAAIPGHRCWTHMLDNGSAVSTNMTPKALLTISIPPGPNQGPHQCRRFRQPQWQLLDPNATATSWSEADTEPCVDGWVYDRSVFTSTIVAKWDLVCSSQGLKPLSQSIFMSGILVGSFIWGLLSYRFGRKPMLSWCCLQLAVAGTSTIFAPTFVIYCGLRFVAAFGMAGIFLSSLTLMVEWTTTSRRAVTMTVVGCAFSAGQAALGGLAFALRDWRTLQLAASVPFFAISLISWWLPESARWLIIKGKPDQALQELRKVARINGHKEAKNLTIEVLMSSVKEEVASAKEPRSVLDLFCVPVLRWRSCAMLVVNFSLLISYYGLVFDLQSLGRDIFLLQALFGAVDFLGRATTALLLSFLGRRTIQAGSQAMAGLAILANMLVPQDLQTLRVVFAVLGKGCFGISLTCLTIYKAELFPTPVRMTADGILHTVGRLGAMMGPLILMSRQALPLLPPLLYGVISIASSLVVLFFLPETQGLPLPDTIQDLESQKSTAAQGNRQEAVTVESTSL
Sequence of UniProt Q8NER1 (whole entry, looked up): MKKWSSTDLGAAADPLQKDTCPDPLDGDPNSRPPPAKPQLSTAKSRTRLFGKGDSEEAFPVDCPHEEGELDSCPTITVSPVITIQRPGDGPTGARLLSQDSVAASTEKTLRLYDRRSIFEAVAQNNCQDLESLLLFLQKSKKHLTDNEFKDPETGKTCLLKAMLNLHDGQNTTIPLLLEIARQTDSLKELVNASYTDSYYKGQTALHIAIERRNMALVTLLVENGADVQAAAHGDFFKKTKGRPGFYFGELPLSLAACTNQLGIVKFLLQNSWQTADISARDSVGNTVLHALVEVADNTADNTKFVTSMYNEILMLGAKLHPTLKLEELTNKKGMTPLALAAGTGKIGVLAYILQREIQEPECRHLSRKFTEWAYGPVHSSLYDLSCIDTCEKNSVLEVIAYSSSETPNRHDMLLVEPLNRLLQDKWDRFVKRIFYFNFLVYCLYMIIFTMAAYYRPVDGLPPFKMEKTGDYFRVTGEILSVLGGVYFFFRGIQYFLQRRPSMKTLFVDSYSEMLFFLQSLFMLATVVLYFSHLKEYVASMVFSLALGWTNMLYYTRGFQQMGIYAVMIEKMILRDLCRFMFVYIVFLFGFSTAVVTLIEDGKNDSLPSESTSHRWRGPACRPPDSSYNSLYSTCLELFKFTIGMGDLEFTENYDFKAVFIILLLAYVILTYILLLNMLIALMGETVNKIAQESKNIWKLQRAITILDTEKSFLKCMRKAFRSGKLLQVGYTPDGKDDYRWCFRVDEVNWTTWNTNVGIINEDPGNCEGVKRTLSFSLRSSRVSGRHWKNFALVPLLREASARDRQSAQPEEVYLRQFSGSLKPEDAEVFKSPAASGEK
Sequence of UniProt P14902 (whole entry, looked up): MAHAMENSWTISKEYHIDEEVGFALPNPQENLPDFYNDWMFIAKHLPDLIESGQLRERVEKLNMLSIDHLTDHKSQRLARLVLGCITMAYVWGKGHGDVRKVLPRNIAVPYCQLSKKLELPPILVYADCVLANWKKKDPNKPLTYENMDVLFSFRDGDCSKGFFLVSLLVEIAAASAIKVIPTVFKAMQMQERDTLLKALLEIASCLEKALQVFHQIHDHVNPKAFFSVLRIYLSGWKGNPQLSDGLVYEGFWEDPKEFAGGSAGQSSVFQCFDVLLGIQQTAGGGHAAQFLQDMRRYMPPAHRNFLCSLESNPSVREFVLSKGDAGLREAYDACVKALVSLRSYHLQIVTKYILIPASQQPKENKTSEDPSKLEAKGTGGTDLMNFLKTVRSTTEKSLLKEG
Sequence of UniProt P11388 (whole entry, looked up): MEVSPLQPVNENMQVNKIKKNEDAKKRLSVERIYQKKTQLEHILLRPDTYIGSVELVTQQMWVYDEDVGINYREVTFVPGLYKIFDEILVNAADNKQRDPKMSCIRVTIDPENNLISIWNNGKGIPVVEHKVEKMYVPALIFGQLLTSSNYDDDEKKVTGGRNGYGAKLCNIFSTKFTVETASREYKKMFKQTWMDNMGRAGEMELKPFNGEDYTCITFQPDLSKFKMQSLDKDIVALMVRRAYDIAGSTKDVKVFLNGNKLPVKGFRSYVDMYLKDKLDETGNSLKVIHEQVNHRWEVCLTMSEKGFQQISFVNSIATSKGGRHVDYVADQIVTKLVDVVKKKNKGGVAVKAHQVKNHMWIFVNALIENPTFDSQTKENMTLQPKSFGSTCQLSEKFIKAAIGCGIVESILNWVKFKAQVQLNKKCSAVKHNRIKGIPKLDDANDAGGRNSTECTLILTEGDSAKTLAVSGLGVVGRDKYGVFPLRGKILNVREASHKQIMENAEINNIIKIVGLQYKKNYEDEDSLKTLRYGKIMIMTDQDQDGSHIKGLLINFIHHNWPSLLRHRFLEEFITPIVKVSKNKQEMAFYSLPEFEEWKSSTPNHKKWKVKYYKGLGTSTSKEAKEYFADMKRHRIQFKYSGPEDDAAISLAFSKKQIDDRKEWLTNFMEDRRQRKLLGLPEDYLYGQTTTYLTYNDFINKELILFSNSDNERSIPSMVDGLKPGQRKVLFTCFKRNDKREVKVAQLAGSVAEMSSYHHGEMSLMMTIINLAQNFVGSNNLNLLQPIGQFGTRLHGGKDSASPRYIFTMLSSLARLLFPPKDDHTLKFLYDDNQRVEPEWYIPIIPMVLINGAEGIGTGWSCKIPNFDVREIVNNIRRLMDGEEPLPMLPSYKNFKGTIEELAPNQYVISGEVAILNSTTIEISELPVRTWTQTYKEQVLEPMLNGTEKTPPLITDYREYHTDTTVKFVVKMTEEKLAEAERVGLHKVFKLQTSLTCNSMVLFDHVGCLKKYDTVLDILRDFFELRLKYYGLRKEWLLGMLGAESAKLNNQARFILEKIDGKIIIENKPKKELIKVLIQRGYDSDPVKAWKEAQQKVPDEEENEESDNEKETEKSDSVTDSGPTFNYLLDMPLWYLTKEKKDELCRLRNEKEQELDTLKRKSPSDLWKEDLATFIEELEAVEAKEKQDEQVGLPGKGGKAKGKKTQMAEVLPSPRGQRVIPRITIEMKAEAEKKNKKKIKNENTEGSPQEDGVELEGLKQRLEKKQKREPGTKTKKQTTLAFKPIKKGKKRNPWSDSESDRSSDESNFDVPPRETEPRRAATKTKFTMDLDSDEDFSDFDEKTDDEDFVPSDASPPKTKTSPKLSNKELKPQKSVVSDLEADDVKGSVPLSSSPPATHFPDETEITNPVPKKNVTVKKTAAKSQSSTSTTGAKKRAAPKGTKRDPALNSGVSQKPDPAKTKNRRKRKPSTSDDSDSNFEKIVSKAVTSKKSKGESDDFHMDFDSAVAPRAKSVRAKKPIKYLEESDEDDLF

Compound = Fc1ccccc1Cc1nc(-c2nc(C(F)(F)F)n[nH]2)cn2ccnc12; system = healthy human subjects, both sexes; conditions = oral, 10 mg, fed; quantity = subjects with respiratory TEAEs; value = 0%
Compound = CO/N=C(\C(=O)N[C@@H]1C(=O)N2C(C(=O)O)=C(COC(C)=O)CS[C@H]12)c1csc(N)n1; tested on = Salmonella enterica serovar Uganda; test = broth microdilution; system = clinical isolate RKI-No 206/14; quantity = MIC; value = > 16 µg/mL
Compound = COc1cc([C@@H]2c3cc4c(cc3[C@@H](O[C@@H]3O[C@@H]5CO[C@@H](C)O[C@H]5[C@H](O)[C@H]3O)[C@H]3COC(=O)[C@H]23)OCO4)cc(OC)c1O; tested on = TOP2A (Homo sapiens, UniProt P11388); test = DNA cleavage; conditions = 15.6 µM; quantity = mean linear DNA; value = 10.8%
Compound = C=C(C)[C@]12C[C@@H](C)[C@@]34O[C@](Cc5ccccc5)(O[C@@H]1[C@@H]3C=C(COC(=O)Cc1ccc(O)c(OC)c1)C[C@]1(O)C(=O)C(C)=C[C@@H]41)O2; tested on = TRPV1 (Homo sapiens, UniProt Q8NER1); test = Ca2+ influx, agonist, BRET; system = HEK-293T; quantity = EC50; value = 0.00501 µM
Compound = Cc1cc(C)cc(S(=O)(=O)c2c(C(=O)NCCNS(=O)(=O)C3CC3)[nH]c3ccc(Cl)cc23)c1; tested on = gag-pol reverse transcriptase; test = enzyme activity, inhibitor, ELISA; quantity = IC50; value = 0.057 µM
Compound = COc1ccccc1CNC(=O)c1cc(S(=O)(=O)N2CCc3ccccc3C2)c(C)s1; tested on = rep nsp14; test = inhibitor; quantity = IC50; value = 0.019 µM
Compound = CCCc1nc2c(C)cc(-c3nc4ccccc4n3C)cc2n1Cc1ccc(-c2ccccc2C(=O)O)cc1; tested on = SLC22A11; test = transporter uptake, inhibitor, radiometric; quantity = IC50; value = 43.6 µM
Compound = Cc1c(S(=O)(=O)N2CCC(C)CC2)cc(C(=O)NCc2cccc3c2OCO3)n1C; tested on = rep nsp14; test = inhibitor; quantity = IC50; value = 0.084 µM
Compound = COC(=O)Nc1c(N)nc(-c2nn(Cc3ccccc3F)c3ncc(F)cc23)nc1N; system = healthy male humans, plasma; conditions = 10 mg once daily, day 6 vs day 5, fed, multiple dose, with: warfarin 25 mg single dose; how to read = reference: with over without warfarin; quantity = Cmax ratio; value = 1.03
Compound = CCn1c(C(=O)NCc2ccccc2OC)cc(S(=O)(=O)N2CCC(C)CC2)c1C; tested on = rep nsp14; test = inhibitor; quantity = IC50; value = 0.076 µM
Compound = N[C@@H](Cc1c[nH]c2ccccc12)C(=O)O; tested on = IDO1 (Homo sapiens, UniProt P14902); test = binding, optical absorption titration; conditions = second site, cyanide-bound ferric; quantity = Kd; value = 26000 µM
Compound = Cc1cc(C)cc(S(=O)(=O)c2c(C(=O)NCCCCNS(=O)(=O)c3cccnc3)[nH]c3ccc(Cl)cc23)c1; tested on = gag-pol reverse transcriptase; test = enzyme activity, inhibitor, ELISA; quantity = IC50; value = 0.077 µM
Compound = Cc1cnc(NC(=O)C2=C(O)c3ccccc3S(=O)(=O)N2C)s1; tested on = SLC22A11; test = transporter uptake, inhibitor, radiometric; quantity = IC50; value = 108 µM

Repeated from above:
Compound = CCCc1nc2c(C)cc(-c3nc4ccccc4n3C)cc2n1Cc1ccc(-c2ccccc2C(=O)O)cc1; tested on = SLC22A11; test = transporter uptake, inhibitor, radiometric; quantity = IC50; value = 43.6 µM
